Measurements pooled from the literature.
Protocols differ between the studies behind these lines. ± gives the spread as reported.
Chain of UniProt P21729 (whole entry, looked up): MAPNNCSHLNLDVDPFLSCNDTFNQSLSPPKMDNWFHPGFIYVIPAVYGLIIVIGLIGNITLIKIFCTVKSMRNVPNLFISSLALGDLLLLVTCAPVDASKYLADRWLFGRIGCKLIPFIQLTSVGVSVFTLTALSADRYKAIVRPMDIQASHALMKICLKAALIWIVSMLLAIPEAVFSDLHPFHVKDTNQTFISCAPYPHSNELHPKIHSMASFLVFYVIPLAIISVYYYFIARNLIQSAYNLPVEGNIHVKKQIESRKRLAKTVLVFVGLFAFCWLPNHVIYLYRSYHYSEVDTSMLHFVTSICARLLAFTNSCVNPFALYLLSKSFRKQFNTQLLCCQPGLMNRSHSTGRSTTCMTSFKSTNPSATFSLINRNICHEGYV

SMILES = CCCC[C@@H](NC(=O)[C@H](Cc1c[nH]c2ccccc12)NC(=O)[C@@H](N)CSC1CC(=O)N(CCCCCC(=O)NN=C(CO)[C@]2(O)Cc3c(O)c4c(c(O)c3[C@@H](O[C@H]3C[C@H](N)[C@H](O)[C@H](C)O3)C2)C(=O)c2c(OC)cccc2C4=O)C1=O)C(=O)N[C@@H](CCC(=O)O)C(=O)N[C@@H](C)C(=O)N[C@@H](C)C(=O)N[C@@H](Cc1ccc(O)cc1)C(=O)N[C@@H](CCC(N)=O)C(=O)N[C@H](CCCNC(=N)N)C(=O)N[C@@H](Cc1ccccc1)C(=O)N[C@@H](CC(C)C)C(N)=O (stereo partly shown); system = DMEM/F12 with HEPES; conditions = concentration not given, 37 °C; quantity = time to complete hydrolysis; result = < 3 h
SMILES = N=C(N)NCCC[C@@H]1NC(=O)[C@H](CCCCNC(=O)CCOCCOCCOCCOCCNC(=O)CN2CCN(CC(=O)O)CCN(CC(=O)O)CCN(CC(=O)O)CC2)NC(=O)[C@@H](Cc2ccccc2)NC(=O)[C@H](CC(=O)O)NC(=O)CNC1=O [indium-111 labelled]; system = female athymic nude mice, heart; conditions = intravenous, 3 µCi, 24 h, U-87 MG glioma xenograft; quantity = tissue uptake; result = 0.14 ± 0.01 %ID/g
SMILES = CSCC[C@H](NC(=O)[C@H](CC(C)C)NC(=O)[C@H](Cc1c[nH]cn1)NC(=O)CNC(=O)[C@@H](NC(=O)[C@H](C)NC(=O)[C@H](Cc1c[nH]c2ccccc12)NC(=O)[C@H](CCC(N)=O)NC(=O)[C@H](CC(N)=O)NC(=O)CNC(=O)[C@H](Cc1ccc(O)cc1)NC(=O)[C@H](CCCNC(=N)N)NC(=O)[C@H](CCC(N)=O)NC(=O)[C@@H]1CCCN1C(=O)CN1CCN(CC(=O)O)CCN(CC(=O)O)CCN(CC(=O)O)CC1)C(C)C)C(N)=O [indium-111 labelled]; assay = radio-HPLC; system = Swiss nu/nu mice, blood; conditions = intravenous, 1 nmol, 5 min; quantity = intact peptide; result = 20.6%
SMILES = N=C(N)NCCC[C@@H]1NC(=O)[C@H](CCCCNC(=O)CC[C@H](NC(=O)CCOCCOCCOCCOCCNC(=O)CN2CCN(CC(=O)O)CCN(CC(=O)O)CCN(CC(=O)O)CC2)C(=O)NCCCC[C@@H]2NC(=O)[C@@H](Cc3ccccc3)NC(=O)[C@H](CC(=O)O)NC(=O)CNC(=O)[C@H](CCCNC(=N)N)NC2=O)NC(=O)[C@@H](Cc2ccccc2)NC(=O)[C@H](CC(=O)O)NC(=O)CNC1=O [indium-111 labelled]; system = female athymic nude mice, liver; conditions = intravenous, 3 µCi, 4 h, U-87 MG glioma xenograft; quantity = tissue uptake; result = 2.6 ± 0.37 %ID/g
SMILES = CC(C)C[C@@H]1NC(=O)[C@H](C(C)C)NC(=O)[C@H](CO)NC(=O)CNC(=O)CNC(=O)[C@H](CCCNC(=N)N)NC(=O)[C@@H]2CCCN2C(=O)[C@@H](NC(=O)CC[C@H](NC(=O)c2ccc(N(C)Cc3cnc4nc(N)nc(N)c4n3)cc2)C(=O)O)C(C)(C)SSC[C@@H](C(=O)O)NC(=O)CNC(=O)[C@H]([C@@H](C)O)NC(=O)[C@H](C(C)C)NC1=O; assay = HPLC; system = Phosphate buffer; conditions = pH 6.0, 70 °C; quantity = degradation rate constant; result = 0.0009 h⁻¹
SMILES = C=Cc1c(C)c2cc3nc(c4c5[nH]c(cc6nc(cc1[nH]2)C(C)=C6CC)c(C)c5C(=O)C4)[C@@H](CCC(=O)NCC(=O)N1CCC[C@H]1C(=O)N[C@@H](CC(C)C)C(=O)NCC(=O)N[C@@H](Cc1ccccc1)C(=O)N[C@@H](CCCNC(=N)N)C(=O)N[C@H](C(=O)NCC(=O)N[C@@H](CCCCN)C(N)=O)C(C)C)[C@@H]3C; target or system = OA patient synovial fibroblasts; assay = flow cytometry; conditions = 1 µM, 1 h; scale = relative to: untreated; quantity = mean fluorescence intensity; result = 14 ± 5 fold
SMILES = C[C@@](O)(C(F)F)[C@H](NC(=O)c1ccc(C#CC#CC2CC2)cc1)C(=O)NO; system = CD-1 mice; conditions = intraperitoneal, 40 mg/kg; quantity = apparent volume of distribution (Vz/F); result = 2.7 ± 0.7 L/kg
SMILES = N=C(N)NCCC[C@@H]1NC(=O)[C@H](CCCCNC(=O)CC[C@H](NC(=O)CCOCCOCCOCCOCCNC(=O)CC[C@H](NC(=O)CN2CCN(CC(=O)O)CCN(CC(=O)O)CCN(CC(=O)O)CC2)C(=O)NCCOCCOCCOCCOCCC(=O)N[C@@H](CCC(=O)NCCCC[C@@H]2NC(=O)[C@@H](Cc3ccccc3)NC(=O)[C@H](CC(=O)O)NC(=O)CNC(=O)[C@H](CCCNC(=N)N)NC2=O)C(=O)NCCCC[C@@H]2NC(=O)[C@@H](Cc3ccccc3)NC(=O)[C@H](CC(=O)O)NC(=O)CNC(=O)[C@H](CCCNC(=N)N)NC2=O)C(=O)NCCCC[C@@H]2NC(=O)[C@@H](Cc3ccccc3)NC(=O)[C@H](CC(=O)O)NC(=O)CNC(=O)[C@H](CCCNC(=N)N)NC2=O)NC(=O)[C@@H](Cc2ccccc2)NC(=O)[C@H](CC(=O)O)NC(=O)CNC1=O [indium-111 labelled]; system = female athymic nude mice, lungs; conditions = intravenous, 3 µCi, 24 h, U-87 MG glioma xenograft; quantity = tissue uptake; result = 0.96 ± 0.33 %ID/g
SMILES = CCCC[C@H](NC(=O)CNC(=O)CNC(=O)c1ccc(NN)nc1)C(=O)N[C@H]1CC(=O)NCCCC[C@@H](C(N)=O)NC(=O)[C@H](Cc2c[nH]c3ccccc23)NC(=O)[C@H](CCCNC(=N)N)NC(=O)[C@@H](Cc2ccccc2)NC(=O)[C@H](Cc2c[nH]cn2)NC1=O [technetium-99m labelled]; system = C57 mouse, B16/F1 melanoma, bone; conditions = 2 h, with: L-lysine 12 mg; quantity = uptake; result = 0.13 ± 0.08 %ID/g
SMILES = CCCC[C@H](NC(=O)CCCCCCCNC(=O)c1ccc(NN)nc1)C(=O)N[C@H]1CC(=O)NCCCC[C@@H](C(N)=O)NC(=O)[C@H](Cc2c[nH]c3ccccc23)NC(=O)[C@H](CCCNC(=N)N)NC(=O)[C@@H](Cc2ccccc2)NC(=O)[C@H](Cc2c[nH]cn2)NC1=O [technetium-99m labelled]; system = C57 mouse, B16/F1 melanoma, blood; conditions = intravenous, 4 h; quantity = uptake; result = 0.3 ± 0.14 %ID/g
SMILES = CC(C)C[C@H](NC(=O)[C@@H]1CCCN1C(=O)[C@H](CCCCN)NC(=O)[C@@H](N)CO)C(=O)N1CCC[C@H]1C(=O)N[C@@H](CCC(=O)O)C(=O)N[C@H](C(=O)N[C@H](C(=O)N[C@@H](CC(=O)O)C(=O)N[C@@H](CCC(=O)O)C(=O)N[C@@H](Cc1ccc(O)cc1)C(=O)N[C@@H](Cc1cn(CCOCCOCCOCCNC(=O)CCc2ccc(O)c(CN(CCN(CC(=O)O)Cc3cc(CCC(=O)NCCCC[C@H](NC(=O)N[C@@H](CCC(=O)O)C(=O)O)C(=O)O)ccc3O)CC(=O)O)c2)nn1)C(=O)O)[C@@H](C)O)C(C)C [gallium-68 labelled]; system = NMRI nu/nu mouse, LNCaP xenograft, submandibular gland; conditions = 135.34 nmol/kg, low molar activity; quantity = SUV; result = 0.05 g/g
SMILES = CCCNC(=O)[C@H](CC(C)C)NC(=O)[C@H](Cc1c[nH]cn1)NC(=O)CNC(=O)[C@@H](NC(=O)[C@H](C)NC(=O)[C@H](Cc1c[nH]c2ccccc12)NC(=O)[C@H](CCC(N)=O)NC(=O)[C@@H](Cc1ccccc1)NC(=O)CCCCCNC(=O)CN1CCN(CC(=O)O)CCN(CC(=O)O)CCN(CC(=O)O)CC1)C(C)C [indium-111 labelled]; target or system = Gastrin-releasing peptide receptor (Mus musculus, UniProt P21729); assay = biodistribution; system = CF-1 mice, lung; conditions = intravenous, 1 h, with: bombesin 100 µg, blocking; quantity = tissue uptake; result = 0.35 ± 0.05 %ID/g
SMILES = CN[C@](C)(C[18F])C(=O)O; target or system = SK-OV-3 tumour model; system = host not given, tumour; conditions = 30 min, tumour-bearing; quantity = tracer uptake; result = 14.1 %ID/g

Excerpt of the above:
SMILES = CCCC[C@@H](NC(=O)[C@H](Cc1c[nH]c2ccccc12)NC(=O)[C@@H](N)CSC1CC(=O)N(CCCCCC(=O)NN=C(CO)[C@]2(O)Cc3c(O)c4c(c(O)c3[C@@H](O[C@H]3C[C@H](N)[C@H](O)[C@H](C)O3)C2)C(=O)c2c(OC)cccc2C4=O)C1=O)C(=O)N[C@@H](CCC(=O)O)C(=O)N[C@@H](C)C(=O)N[C@@H](C)C(=O)N[C@@H](Cc1ccc(O)cc1)C(=O)N[C@@H](CCC(N)=O)C(=O)N[C@H](CCCNC(=N)N)C(=O)N[C@@H](Cc1ccccc1)C(=O)N[C@@H](CC(C)C)C(N)=O (stereo partly shown); system = DMEM/F12 with HEPES; conditions = concentration not given, 37 °C; quantity = time to complete hydrolysis; result = < 3 h
SMILES = N=C(N)NCCC[C@@H]1NC(=O)[C@H](CCCCNC(=O)CCOCCOCCOCCOCCNC(=O)CN2CCN(CC(=O)O)CCN(CC(=O)O)CCN(CC(=O)O)CC2)NC(=O)[C@@H](Cc2ccccc2)NC(=O)[C@H](CC(=O)O)NC(=O)CNC1=O [indium-111 labelled]; system = female athymic nude mice, heart; conditions = intravenous, 3 µCi, 24 h, U-87 MG glioma xenograft; quantity = tissue uptake; result = 0.14 ± 0.01 %ID/g
